Measurements gathered from unrelated publications.
Each numbered part is a random draw from the data of one study; scales do not carry over between parts.

Set 1 — method: aptamer microarray, sandwich; molecule type: DNA with 2'F-ANA; matrix: in vitro; concentration: 200 nM; together with: Cy3 exosite-II aptamer, 400 nM; direction: higher = stronger binding; quantity: mean fluorescence intensity; strand: GGTTGGTGTGGTTGG
Target: Prothrombin, mature alpha-thrombin (F2, Homo sapiens, UniProt P00734)
Notes: whole 15-mer aptamer, many near background
2'F-ANA at 3 5 6 13 15: 73.2 a.u.
2'F-ANA at 1 3 4 8 9 11 13: 156 a.u.
2'F-ANA at 1 2 7 13 14: 64 a.u.
2'F-ANA at 2 3 6 7 8 11 12 13: 798 a.u.
2'F-ANA at 6 7 8 12 13 15: 758 a.u.
2'F-ANA at 1 2 4 5 9 11 12 13 14: 48.5 a.u.
2'F-ANA at 2 5 9 10 12 15: 49.1 a.u.
2'F-ANA at 1 4 8 11 13 14 15: 52.5 a.u.
2'F-ANA at 2 7 8 9 11 12: 682 a.u.
2'F-ANA at 3 4 5 7 8 9 10 11 14 15: 56.7 a.u.
2'F-ANA at 1 4 5 8 11 12: 142 a.u.
2'F-ANA at 1 2 3 4 8 9 12 13 14: 69.1 a.u.
2'F-ANA at 3 4 5 8 11 12 13 14 15: 58.1 a.u.
2'F-ANA at 3 5 8 9 10 11 12 13: 63.8 a.u.
2'F-ANA at 3 4 5 7 10 12: 151 a.u.
2'F-ANA at 1 2 8 10 13 14 15: 83.7 a.u.
2'F-ANA at 3 4 5 7 10 11 12 13 15: 55.6 a.u.
2'F-ANA at 1 4 9 10 14 15: 74.9 a.u.
2'F-ANA at 2 3 4 5 7 8 9 10 13 15: 101 a.u.
2'F-ANA at 1 5 9 11 13 14: 65.7 a.u.
2'F-ANA at 2 3 4 8 10 11 12 13 15: 216 a.u.
2'F-ANA at 5 6 7 8 9 11 13: 58.5 a.u.

Set 2 — method: protein binding microarray; molecule type: double-stranded DNA, one strand shown; matrix: in vitro; concentration: not given; relative to: not given; direction: higher = stronger binding; quantity: E-score
Target: Histone acetyltransferase KAT6A, winged helix 2, GST fusion (KAT6A, Homo sapiens, UniProt Q92794, residues 85-181)
Notes: 8-mer, flanks averaged, mean of 2 arrays, mostly near background
Construct (chain): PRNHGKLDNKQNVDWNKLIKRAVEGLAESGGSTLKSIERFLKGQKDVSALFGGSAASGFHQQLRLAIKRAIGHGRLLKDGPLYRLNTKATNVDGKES
AAACGCGG: 0.0645
CTTCGGAC: 0.177
GTGAAACA: 0.0542
GCCGAACC: -0.00095
CCTGAACG: 0.0135
CTTAGCAC: 0.0633
CTAGTCCA: -0.0563
ACGCGTCT: -0.0868
TGAAAGAA: 0.0768
ACGTCACC: -0.171
ATCAACGG: 0.0466
TAAGCGCA: 0.0751
CGTACAAA: 0.0186
CGTCAACG: -0.0882
CAATGATC: -0.0926
AAGTTCAG: 0.0366
CCAGCGCA: 0.0664
AAGGTCCA: 0.0782
AGGAAGCC: -0.00081
ACCGGACC: 0.103
TAACTCAA: 0.0434
CCCAGTCA: -0.074
CCATGTCA: -0.148

Set 3 — method: competition protein-binding microarray; molecule type: double-stranded DNA, one strand shown; matrix: in vitro; concentration: 2 µM; together with: Cbf1 competitor, 0.05 µM; direction: higher = stronger binding; quantity: fluorescence intensity; all sequences stand within: … GTCTTGATTCGCTTGACGCTGCTG
Target: Phosphate system positive regulatory protein PHO4, full length, GST-tagged (PHO4, Saccharomyces cerevisiae, UniProt P07270, residues 1-312)
Notes: whole 60-bp probe, lowest competitor level
Target sequence (chain): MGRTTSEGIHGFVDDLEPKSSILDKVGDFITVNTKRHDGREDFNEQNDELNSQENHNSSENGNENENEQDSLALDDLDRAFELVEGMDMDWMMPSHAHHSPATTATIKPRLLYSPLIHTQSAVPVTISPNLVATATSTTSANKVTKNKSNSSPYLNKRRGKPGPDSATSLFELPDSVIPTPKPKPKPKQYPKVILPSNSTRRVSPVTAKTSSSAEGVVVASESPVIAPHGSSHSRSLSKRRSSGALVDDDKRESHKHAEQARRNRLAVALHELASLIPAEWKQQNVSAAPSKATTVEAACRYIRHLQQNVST
ACACAAAATTGTGGAACCGTGACAAGCAATGGCTGA: 5070 a.u.
TTAACATAATTAAAGCACGCAGCGATTGGGTATAAT: 9870 a.u.
TTCCGGGGAACGTCCCACGTTCACAACCGCGCCGCG: 11100 a.u.
TCCAGTGAAGCGCCCCTCGTGCTTTGGAAATCCCTG: 12900 a.u.
TGCGCAACAACTTTTCACGTGCGGTTATGTCTAGAA: 14800 a.u.
GCGGCTAAATTTAAGGGCGTGATGGCAGAACTCGGC: 5010 a.u.
CAGCGCGATCAGTTGCACATGGCGCGACTGCAAACC: 9030 a.u.
TCTTATATTGCAAAGCACGTTTCATCAAGACCTTTA: 13100 a.u.
GTCTTGTCTCATTTTCACGTGAGATTCCCCACTTCA: 8980 a.u.
CTGCTTGGCGTATGGGGCGTGCAAATAACTGTTCAT: 9770 a.u.
ATTATACAACAAACACACGTTAAGAGACGCAAACGG: 7380 a.u.
AGAGCATAGGTTTGACCCGTGATTGTGCCGACGTCA: 6170 a.u.
CTTTCCCGATCTTGTTATGTGGGTGTAGCACATTTG: 5090 a.u.
CTAACGAAGGTTTGCCGAGTGGGTGACAAGCCAAGT: 3490 a.u.
TCCGTCAGTGTAGCGCGCGTGCGGACCAGAACGTCT: 9470 a.u.
CTGAACCAGATGTTGCTCGTGGATTGGTTCGGTACC: 7740 a.u.
GTCTTGTCTCATTGGTAAGTGGGTGTCCCCACTTCA: 5050 a.u.
TTTGGTGACTTACACCACATGTAATGACGCTATGAC: 7890 a.u.

Set 4 — method: RNA Bind-n-Seq; molecule type: RNA; matrix: in vitro; concentration: 200 nM; notes: whole 134-nt RNA, ends assumed; together with: 150 mM LiCl; relative to: input library; direction: higher = stronger binding; quantity: log2 enrichment; each molecule: 7-deaza-guanosine replaces G
Target: Fragile X messenger ribonucleoprotein 1, C-terminal low-complexity region (Fmr1, Mus musculus, UniProt P35922)
All sequences stand within: GGGAGUUCUACAGUCCGACGAUC … UGGAAUUCUCGGGUGUCAAGG
GUCCUGUGCUACACAUCGUAUGUACCGAAUCAAAUUUUUUUAAACCCCCAAAUUUAAAAAAGUAUUAUGUUACGCCGUUCGGAUCUGCAC: -1.65
GCAGGAAGUAAAAACAAAUGGAAAUGCUUCGGAUAGUGGCAGGAAAGGGGGUUGCUAAGGAAAGGGUGGGAUGGGAGUGGGUAAAGAGUU: 1.51
GCAGGAAGUAAAAACAAAUGGAAAUGCUUCGGAUAGUGGCAGGCGUGGGGGUUGCUAAGGAAAGGGUGGGAUGGGAGUGGGUAAAGAGUU: 1.24
AAGUCCUGUGCUACACAUCGUAUGUACCGAAUCGGUUUUUGGAAAAAGGUUUUUGGAAAGUAUUAUGUUACGCCGUUCGGAUCUGCACUU: -3.27
UCCUCAAGUCCUGUGCUACACAUCGUAUGUACCGAAUCGGUGGGGUGGUGGAAAGUAUUAUGUUACGCCGUUCGGAUCUGCACUUCCAGC: -0.475
CUGUGCUACACAUCGUAUGUACCGAAUCGGUUUUUUUGGGUUUUUUUGGGGUUUUUUUGGGGAAAGUAUUAUGUUACGCCGUUCGGAUCU: 1.37
UGGCCCUGGUGGCAUGCGGGGAGGAACAGGUGGCCUCAUGGAUCGUGGUGGUCCCGGUGGAAUGUUCAGAGGUGGCCGUGGUGGAGACAG: -0.202
UGUGCUACACAUCGUAUGUACCGAAUCGGGGUUUUUGGGGUUUUUUUGGGGUUUUUUUGGGGAAAGUAUUAUGUUACGCCGUUCGGAUCU: 1.95

A few entries again (set 1):
2'F-ANA at 2 5 9 10 12 15: 49.1 a.u.
2'F-ANA at 1 4 8 11 13 14 15: 52.5 a.u.
2'F-ANA at 2 7 8 9 11 12: 682 a.u.
2'F-ANA at 3 4 5 7 8 9 10 11 14 15: 56.7 a.u.
2'F-ANA at 1 4 5 8 11 12: 142 a.u.
2'F-ANA at 1 2 3 4 8 9 12 13 14: 69.1 a.u.
2'F-ANA at 3 4 5 8 11 12 13 14 15: 58.1 a.u.
2'F-ANA at 3 5 8 9 10 11 12 13: 63.8 a.u.
2'F-ANA at 3 4 5 7 10 12: 151 a.u.
